Measurements of several laboratories.
Each line is one published result; not all experiments were run side by side. Values joined by “and” are separate records of one study, mostly repeats; a detail may differ. ± gives the spread as reported. No end group written: not given here.
B1: bicyclic; chain AATCHCRRSCYSTEYSYGTCTVMGINHRFCCL (also: bicyclic or more (positions not given here))
UniProt P08183, sequence (whole entry, looked up): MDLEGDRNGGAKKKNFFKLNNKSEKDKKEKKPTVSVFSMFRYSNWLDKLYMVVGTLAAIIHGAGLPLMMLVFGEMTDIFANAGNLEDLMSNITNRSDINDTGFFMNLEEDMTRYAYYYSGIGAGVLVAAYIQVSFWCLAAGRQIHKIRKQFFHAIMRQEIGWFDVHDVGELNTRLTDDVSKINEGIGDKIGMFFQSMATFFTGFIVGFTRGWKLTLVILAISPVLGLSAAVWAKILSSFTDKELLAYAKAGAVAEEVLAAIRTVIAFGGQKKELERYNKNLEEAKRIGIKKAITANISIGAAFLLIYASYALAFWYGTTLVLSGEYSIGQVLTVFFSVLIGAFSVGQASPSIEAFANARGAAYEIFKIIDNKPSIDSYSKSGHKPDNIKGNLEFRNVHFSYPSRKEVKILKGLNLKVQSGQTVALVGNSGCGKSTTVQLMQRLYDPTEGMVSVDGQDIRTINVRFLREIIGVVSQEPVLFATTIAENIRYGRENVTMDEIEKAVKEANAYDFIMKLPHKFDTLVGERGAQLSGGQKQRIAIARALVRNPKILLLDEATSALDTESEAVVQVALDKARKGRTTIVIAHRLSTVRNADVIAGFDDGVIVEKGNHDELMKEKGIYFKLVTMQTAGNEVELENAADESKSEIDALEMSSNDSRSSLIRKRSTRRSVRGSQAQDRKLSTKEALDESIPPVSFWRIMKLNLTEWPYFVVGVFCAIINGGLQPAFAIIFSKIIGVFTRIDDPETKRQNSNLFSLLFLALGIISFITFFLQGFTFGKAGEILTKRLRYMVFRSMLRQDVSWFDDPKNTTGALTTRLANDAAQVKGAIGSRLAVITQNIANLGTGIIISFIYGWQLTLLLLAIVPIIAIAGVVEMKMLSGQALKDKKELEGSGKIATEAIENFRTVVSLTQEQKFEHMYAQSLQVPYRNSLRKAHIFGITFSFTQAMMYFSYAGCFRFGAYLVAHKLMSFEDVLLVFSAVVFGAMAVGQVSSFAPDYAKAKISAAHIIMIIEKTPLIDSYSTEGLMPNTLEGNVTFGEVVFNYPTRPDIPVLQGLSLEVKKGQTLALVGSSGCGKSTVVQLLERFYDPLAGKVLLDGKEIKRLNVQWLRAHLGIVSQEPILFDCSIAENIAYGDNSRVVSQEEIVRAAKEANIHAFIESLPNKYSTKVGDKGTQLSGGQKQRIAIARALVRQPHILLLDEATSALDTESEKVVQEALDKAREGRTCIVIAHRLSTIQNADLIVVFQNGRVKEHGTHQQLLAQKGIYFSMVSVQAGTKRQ
UniProt Q9UNQ0, sequence (whole entry, looked up): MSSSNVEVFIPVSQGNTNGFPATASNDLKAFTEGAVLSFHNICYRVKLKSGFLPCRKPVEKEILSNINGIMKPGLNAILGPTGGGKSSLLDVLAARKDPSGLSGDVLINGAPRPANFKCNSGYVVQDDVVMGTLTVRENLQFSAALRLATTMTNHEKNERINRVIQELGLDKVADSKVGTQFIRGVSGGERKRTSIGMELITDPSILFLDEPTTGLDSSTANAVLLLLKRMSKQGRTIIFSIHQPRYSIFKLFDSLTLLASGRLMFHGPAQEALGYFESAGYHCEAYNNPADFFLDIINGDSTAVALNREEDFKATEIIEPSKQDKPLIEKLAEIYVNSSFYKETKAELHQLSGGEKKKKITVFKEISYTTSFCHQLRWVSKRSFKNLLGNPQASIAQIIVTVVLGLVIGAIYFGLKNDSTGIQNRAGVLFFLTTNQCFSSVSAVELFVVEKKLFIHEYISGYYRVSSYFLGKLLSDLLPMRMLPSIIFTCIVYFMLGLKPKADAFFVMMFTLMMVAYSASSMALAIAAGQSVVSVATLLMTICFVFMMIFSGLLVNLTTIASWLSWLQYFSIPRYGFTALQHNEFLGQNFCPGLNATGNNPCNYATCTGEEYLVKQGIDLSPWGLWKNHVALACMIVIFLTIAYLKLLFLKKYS
UniProt P11712, sequence (whole entry, looked up): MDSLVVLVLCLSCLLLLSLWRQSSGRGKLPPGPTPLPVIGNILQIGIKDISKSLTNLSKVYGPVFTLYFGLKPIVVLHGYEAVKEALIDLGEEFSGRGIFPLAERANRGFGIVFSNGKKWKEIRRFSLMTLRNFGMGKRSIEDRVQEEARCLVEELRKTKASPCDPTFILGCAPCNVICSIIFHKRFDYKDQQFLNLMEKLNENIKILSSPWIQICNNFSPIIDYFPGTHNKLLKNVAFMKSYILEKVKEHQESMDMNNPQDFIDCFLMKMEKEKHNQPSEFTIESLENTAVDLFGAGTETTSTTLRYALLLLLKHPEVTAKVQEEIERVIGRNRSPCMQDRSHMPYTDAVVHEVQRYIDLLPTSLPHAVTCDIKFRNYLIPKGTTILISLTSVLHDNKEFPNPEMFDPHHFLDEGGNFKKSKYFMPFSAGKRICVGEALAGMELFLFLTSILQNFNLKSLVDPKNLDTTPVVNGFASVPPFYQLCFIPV

Molecule | target or system | assay | system | setting | how to read | quantity | result
LVHYTHCGSLGV | Epstein-Barr virus | – | peptide, EBV-infected humanized B-NDG mice | 20 mg/kg, day 0 | – | body weight | 21.8 g and 19.4 g and 22.9 g
RRGCLCYCRRRFCVCVCR (disulfide (positions not given here)) (disulfide) | human red blood cells | – | – | 128 µg/mL, 3 h, 37 °C | relative to: Triton X-100 1% | haemolysis | 33.4%
FNA / CGLSGLGVA-NH2 ([18F]FNA-labelled, C-amide) | – | ex vivo gamma counting | peptide, glioblastoma mouse model, pancreas | 60 min post injection, added: 500-fold excess CooP blocking | – | tissue uptake | 0.26 %ID/g
Polymyxin B | Acinetobacter baumannii | – | 17978, neutropenic mice with pneumonia | nebulised, dose not given | – | blood urea nitrogen | increased
GSGAGRETEV | human MAGI1-3/6 PDZ construct (MBP fusion) | automated holdup | peptide, purified PDZ protein | concentration not given, unit not given | relative to: biotin control resin, higher = stronger binding | binding intensity | 0.172
caspofungin | – | – | adult ICU patients, mITT, serum | dose not given, day 30 | – | albumin | 32.2 g/L
Teicoplanin | – | – | human serum QC samples | room temperature | – | stability time | ≤ 2 days
regorafenib N-β-glucuronide | – | – | reconstituted mouse plasma extract | up to 24 h, 4 °C | relative to: initial concentration | autosampler stability | < 15%
Rilpivirine docusate | – | – | Capmul MCM C8 | mean of three | – | kinetic solubility | ~500 mg/mL
Tumor necrosis factor alpha | ABCB1 (Homo sapiens, UniProt P08183) | – | enteroid monolayers | 1 ng/mL, 48 h, added: tariquidar 10 µM | – | digoxin efflux ratio | increased
Astragaloside I | Cytochrome P450 2C9 (CYP2C9, Homo sapiens, UniProt P11712) | enzyme activity, inhibitor | human liver microsomes 0.2 mg/mL | added: tolbutamide 100 µM | – | IC50 | > 200 µM
B1 | – | sedimentation velocity ultracentrifugation | 10 mM Tris-maleate | 100 µM, pH 6.4, 20 °C | – | sedimentation coefficient s20,w | 0.792 S
Lucifer yellow | ABCG2 (Homo sapiens, UniProt Q9UNQ0) | substrate | – | – | relative to: ATP over AMP | uptake ratio | 37
Triton X-100 | human red blood cells | – | – | concentration not given, 1 h | – | hemolysis | 99.9%
NPDALPETLV | human MAGI1-3/6 PDZ construct (MBP fusion) | automated holdup | peptide, purified PDZ protein | concentration not given, unit not given | relative to: biotin control resin, higher = stronger binding | binding intensity | 0.637
NASC | PC-12 | CellTiter-Glo | peptide | 1 mM, 72 h | relative to: vehicle | viability | 103% and 100% and 101%
Polymyxin B | – | untargeted LC-MS metabolomics, item: pyrophosphate | Sprague-Dawley rat, right cerebral cortex | intracerebroventricular, 0.75 mg/kg, 1 h | relative to: NaCl control | log2 fold change | -9.8
RRWCLCFCRRRFCVCVCR (disulfide (positions not given here)) (disulfide) | human red blood cells | – | – | 128 µg/mL, 3 h, 37 °C | relative to: Triton X-100 1% | haemolysis | 51.2%
TYASNTSTL | HLA-A24 complex with compound | nanoDSF | peptide | pH 7.6, 2 µM complex | – | Tm | 61.8 ± 0.1 °C

Excerpt of the above:
Molecule | target or system | assay | system | setting | how to read | quantity | result
FNA / CGLSGLGVA-NH2 ([18F]FNA-labelled, C-amide) | – | ex vivo gamma counting | peptide, glioblastoma mouse model, pancreas | 60 min post injection, added: 500-fold excess CooP blocking | – | tissue uptake | 0.26 %ID/g
Polymyxin B | Acinetobacter baumannii | – | 17978, neutropenic mice with pneumonia | nebulised, dose not given | – | blood urea nitrogen | increased
